Results gathered from unrelated publications.
Parts stem from different laboratories: compare values within a part only. Positions count from the first letter of the parent shown.

Sample 1
Target: Histone acetyltransferase KAT6A, winged helix 2, GST fusion (KAT6A, Homo sapiens, UniProt Q92794, residues 85-181)
Method: protein binding microarray
Molecule type: double-stranded DNA, one strand shown
Matrix: in vitro
Tested at: not given
Setting: 8-mer, flanks averaged, mean of 2 arrays, mostly near background
Relative to: not given
Reading: higher = stronger binding
Endpoint: E-score
Construct (chain): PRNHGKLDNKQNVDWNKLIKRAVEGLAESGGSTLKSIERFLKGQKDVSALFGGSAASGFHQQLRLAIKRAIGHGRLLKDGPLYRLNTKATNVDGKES
CCTCCTGA: -0.0247
ATGGTAGC: -0.046
AGAAAAGG: 0.0544
AAAGCACG: -0.00827
CGCATCGC: 0.211
AGCAGTGG: -0.0043
CACCCAGA: 0.109
TGCACAAA: 0.00719
AGGCGTCG: 0.0856
GTCCAGAA: -0.0638
CAGGGTGA: -0.00665
ACCATCGT: -0.144
AAGACCGC: 0.0897
ACTAAAGG: -0.0488
AGTCAAAA: 0.0545
AGGCGAAC: 0.1
CGGAACGA: 0.0584
ACGTCGCT: -0.126
ACCCAACG: -0.0191
GTTACGAA: -0.00724
AGGTTAAG: -0.153
TCAATGAA: 0.00024
CGCTACAA: -0.203
CAATGAAG: -0.118
TTCAGGAA: -0.0941

Sample 2
Target: Ras GTPase-activating protein-binding protein 1, full length (G3BP1, Homo sapiens, UniProt Q13283)
Chain of UniProt Q13283 (whole entry, looked up): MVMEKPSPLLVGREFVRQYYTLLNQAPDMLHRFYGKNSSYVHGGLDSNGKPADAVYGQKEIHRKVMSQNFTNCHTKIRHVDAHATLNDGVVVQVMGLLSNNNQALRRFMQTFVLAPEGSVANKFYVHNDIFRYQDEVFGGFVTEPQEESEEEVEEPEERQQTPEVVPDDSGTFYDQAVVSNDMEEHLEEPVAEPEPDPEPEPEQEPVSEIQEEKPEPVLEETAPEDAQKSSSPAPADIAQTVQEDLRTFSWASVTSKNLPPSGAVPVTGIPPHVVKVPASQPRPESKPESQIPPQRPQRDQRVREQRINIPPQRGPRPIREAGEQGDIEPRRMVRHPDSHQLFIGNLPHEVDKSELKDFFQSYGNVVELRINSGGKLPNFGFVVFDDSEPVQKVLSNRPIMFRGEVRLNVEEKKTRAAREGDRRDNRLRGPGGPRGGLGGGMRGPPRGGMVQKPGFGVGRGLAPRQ
Method: RNA Bind-n-Seq
Molecule type: RNA
Matrix: in vitro
Tested at: 200 nM
Setting: whole 134-nt RNA, ends assumed
With: 150 mM KCl
Relative to: input library
Reading: higher = stronger binding
Endpoint: log2 enrichment
All sequences stand within: GGGAGUUCUACAGUCCGACGAUC … UGGAAUUCUCGGGUGUCAAGG
CCUGUGCUACACAUCGUAUGUACCGAAUCGGGAAAAAAAGGGUUUUUUUGGGAAAAAGGGAAAGUAUUAUGUUACGCCGUUCGGAUCUGC: -1.08
UCCUGUGCUACACAUCGUAUGUACCGAAUCGGGGUUUUUGGGGAGGGGAAAAAAAGGGGAAAGUAUUAUGUUACGCCGUUCGGAUCUGCA: 0.429
UCAAGUCCUGUGCUACACAUCGUAUGUACCGAAUCGGAAAAAGGAGGAAAAAGGAAAGUAUUAUGUUACGCCGUUCGGAUCUGCACUUCC: -0.887
ACCAUGCAGGUGGGCAUCUUUGGGAAGUGGGGCAAGGGGGGGAUAGGGAGGGGGGUAACACUUUGGGAACAGGUGGUCCCAGGGCGUUUC: 1.23
UGUGCUACACAUCGUAUGUACCGAAUCGGUUUUUUUGGGGUUUUUUUGGGGUUUUUUUGGGGAAAGUAUUAUGUUACGCCGUUCGGAUCU: -0.844
CAAGUCCUGUGCUACACAUCGUAUGUACCGAAUCGGGAAAGGGAAAGGGGAAAGGGAAAGUAUUAUGUUACGCCGUUCGGAUCUGCACUU: 0.391
UGGGAGGUGGAUUUUGUUUAUCUUUUUAGCUCAUUUCCAGGGGUGGGAAUUUUUUUUUAAUAUGUGUCAUGAAUAAAGUUGUUUUUGAAA: 0.209
CACAGACAACACGCACCCACACAGACACAGAGGGAAGGGGUUGGGAUGGGGACAGGGUGCACAGUAGGGCGGGGUAGGACCCCAGCCCCU: 1.76
UAACUUUAGAGGAAGAUCUGAUGGAUAUGGCAGUGGACGUGGAUUUGGGGAUGGCUAUAAUGGGUAUGGAGGAGGACCUGGAGGUGGCAA: 0.428
UCCUGUGCUACACAUCGUAUGUACCGAAUCAAACCCCCCCAAACCCAAAUUUUUUUAAAAAAGUAUUAUGUUACGCCGUUCGGAUCUGCA: 0.0749
CAAGUCCUGUGCUACACAUCGUAUGUACCGAAUCGGGUUUGGUUUGGGUUUGGGGAAAGUAUUAUGUUACGCCGUUCGGAUCUGCACUUC: -0.183
UGGCCCUGGUGGCAUGCGGGUAGGAAGAGGUGGCCUCAUGGAUCGUGGUGGUCCCGGUGGAAUGUUCAGAGGUGGCCGUGGUGGAGACAG: 0.205

Sample 3
Target: CCNB3, cyclin fold, Cln2 fusion (human)
Method: yeast growth competition, sequencing
Matrix: yeast
Setting: strong parent motif
Relative to: not given
Reading: higher = stronger binding
Endpoint: normalised enrichment score
Starting sequence: PKN2 docking peptide (human); VSAVRKLDFSDTM
VSAVRKLDSSDTM [F9S]: -0.0704
VSAVRKMDFSDTM [L7M]: 0.0759
VWAVRKLDFSDTM [S2W]: 1.59
VSAVRKLDFSDMM [T12M]: 1.88
VSAVRKLDFSHTM [D11H]: 1.51
VSAVRKLHFSDTM [D8H]: 1.02
VSAVRKLDFHDTM [S10H]: 1.29
VSPVRKLDFSDTM [A3P]: 0.78
VSAVMKLDFSDTM [R5M]: 0.168
VHAVRKLDFSDTM [S2H]: 1.6
VSAVRKLDFSDHM [T12H]: 1.7
VSAVHKLDFSDTM [R5H]: 0.1
VSAVEKLDFSDTM [R5E]: 0.115

Sample 4
Target: Interferon regulatory factor 7, full length, phosphomimetic (IRF7, Homo sapiens, UniProt Q92985, residues 1-503, S471D/S472D/S475D/S476D/S477D/S483D/S484D/S487D)
Method: protein-binding microarray
Molecule type: double-stranded DNA, one strand shown
Matrix: in vitro
Tested at: 2200 nM top
Setting: 60-bp whole probe
With: salmon DNA 0.4 mg/ml
Relative to: random background probes
Reading: higher = stronger binding
Endpoint: fitted relative affinity
All sequences stand within: GCCTAGCAC … GTCTTGATTCGCTTGACGCTGCTG
Residues (chain): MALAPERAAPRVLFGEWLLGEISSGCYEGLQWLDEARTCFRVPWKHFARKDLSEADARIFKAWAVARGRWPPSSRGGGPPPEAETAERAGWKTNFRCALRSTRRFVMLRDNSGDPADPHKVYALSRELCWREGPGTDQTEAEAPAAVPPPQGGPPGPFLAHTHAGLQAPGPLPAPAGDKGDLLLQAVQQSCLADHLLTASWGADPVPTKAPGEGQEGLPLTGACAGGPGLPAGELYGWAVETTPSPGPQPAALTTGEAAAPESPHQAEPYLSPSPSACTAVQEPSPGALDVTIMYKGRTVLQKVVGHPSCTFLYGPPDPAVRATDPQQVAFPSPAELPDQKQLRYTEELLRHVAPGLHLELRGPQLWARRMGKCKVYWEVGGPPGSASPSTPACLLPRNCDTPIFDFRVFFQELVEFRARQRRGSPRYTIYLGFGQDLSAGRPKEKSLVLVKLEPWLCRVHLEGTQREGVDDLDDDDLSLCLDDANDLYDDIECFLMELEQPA
AAGGAAGGACCATCCAGAGAGTGCTAG: -0.659 z-score
TCTGTAATTCTTAGAACAGCGTGCTAG: -0.24 z-score
TCAAGCCTCAGGCCTCACACTGTGCTA: -0.443 z-score
GACGGACGGGGGTTTCGGGACGTGCTA: 1.51 z-score
TCATATTTTTTTCTAATACTGTGCTAG: 1.18 z-score
TTAGGTACCGACTATCGGTTAGTGCTA: 0.219 z-score
TTAGATTTCAGACAGGATTAGTGCTAG: -0.393 z-score
GACGGTTTCCTTTCCCTTACGTGCTAG: 5.25 z-score
TTAGGTATTGGACTGGGTTAGTGCTAG: 0.0191 z-score
CTTGCTCTTGTTTTCACAGGGTGCTAG: 1.87 z-score

Sample 5
Target: RNA binding protein fox-1 homolog 2, RRM domain, GST-SBP tag (RBFOX2, Homo sapiens, UniProt O43251-10, residues 100-194)
Method: RNA Bind-n-Seq
Molecule type: RNA
Matrix: in vitro
Tested at: 365 nM
Setting: natural RNA segment, single round, ends assumed
Relative to: no-protein control
Reading: higher = stronger binding
Endpoint: RBNS enrichment (R)
All sequences stand within: GGGAGUUCUACAGUCCGACGAUC … UGGAAUUCUCGGGUGCCAA
Target sequence (chain): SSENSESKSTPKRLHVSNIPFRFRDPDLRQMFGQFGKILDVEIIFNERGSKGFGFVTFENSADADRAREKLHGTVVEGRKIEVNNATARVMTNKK
UAUUGGGUGGGUUUACUCUUAGAAUCGCAUGCUGUAGAAAUGCUCAAAAGUGCAUAUGGGACUCAGUCCUUAGGUGUUCUUUUUCUUUUAAGAAAUAACCUCUUACAGUU: 0.351
UGUGUGUGAGUUCUACGUUUCUACCAUAUGUGAUCAGUUUAAUAGUAACUUUAUUUAUUUAAAAAAAAGAAACACAAUUAGUUACUGUUAAACUGAUAAAGGGUGUUUAU: 1.41
ACCGUAUUCCUCUCCCAGGUGUUUGUGGGGCUGGAAGGACCUGCUCCCACAGGGGCCAUGUCCUCUCUUAAUAGGUGGCACUACCCCAAACCCAUCUUUUGUUCUCCUAU: 0.613
AAAUUAUAGUUUGUCUUUUGUCUUAACAGUUCUGAAUGCUGUCCUCAAAGUAUAUAAUGUUUCAUGUACCAAGACCCUUUUCACAGUACAAUAAACAGAUCUAUUCAUAA: 0.373
AAAAGUUGCCAUUUCAACUACGUCCCAACAUUCCCUAAUAGGGUAUUCAGGGAACCUGUCUUAAAUUGUGCUUAUCUAAAUCUUGGAACUUUGAGCUAGGGGAGGAGAAU: 0.368
ACCCUAUGUACACAGCCAAAAGCCGCACUGCCUGCGCCCCUGGAACCUGGGUCCGGCCUUCCUCAGCCCCUGGCCCCUCCAAGGUACCUAUAAGGGACAAGAGAAGGCCU: 0.365
GUCUUGGUGUAAUUUGAAGAUUGCCCCAUCUAGACUAGCAAUCUCUUCAUUAUUCUCUGCUAUAUAUAAAACGGUGCUGUGAGGGAGGGGAAAAGCAUUUUUCAAUAUAU: 0.741
GACGCUCUCAUUAAAAUCCAUGCAGCCAAGCUCUGCGCUUUGUAGCAGCCGGCCUUGCAGAGCCUCCUCAGCUUGGGGGGCUGGGGACCCAGUCAGCUGAGAGGUCCUCU: 0.531
ACUUUUGUUAUACACAUUUGCUUUGUGUAAAUAAAUGUUUACAAUUUUAUAUGAAAGAUGGAAUAAGCGCUAGAGCUUCCAACUGUAUAUUUUUUACUUUUAUAGAUUUU: 1.35
UUUUUCAAAGACGAUCCUCCUCAAACACCCAUUUUUACAAUAUCUCUAUUGUAAAAUUUCAUUUUCACUAAGUAACACCCAGUAGAUAAUUCCUAUGGAGCAGUGGUGUU: 0.394
ACAGAGUCAGCCUCUAGUAGACCCUGCUCUUUUGCCCCUGGGGCGGGGAGGGUUGGCAGUGGUGGGGCCCAUCCUCUAUCCUGUAGCUCCUGCCGCUGCGAGGCUGAACU: 0.353
UCUCUUCCUCUACUGCCUAACUGUUGGUGGGCUGUAUCAUUCAAUAAGAUCACUUCAUUUUCAACUUAGACCCACCGUUUCUUUUUUGUUGUUUUGUUUUGUUUGGUUUG: 0.669

A few entries again (sample 1):
AGAAAAGG: 0.0544
ATGGTAGC: -0.046
AGGTTAAG: -0.153
TTCAGGAA: -0.0941
AGTCAAAA: 0.0545
